Assay results from different studies.
Each numbered part is a random draw from the data of one study; scales do not carry over between parts. Positions count from the first letter of the parent shown.

Sample 1 — target: CCNF, cyclin fold, Cln2 fusion (human); technique: yeast growth competition, sequencing; sample: yeast; setting: strong parent motif; reference: not given; direction: higher = stronger binding
Starting sequence: RBL1 docking peptide (human); GSAKRRLFGEDPP
Substitution | normalised enrichment score
A3T | 7.24
D11N | 7.36
A3N | -0.0231
K4T | 3.56
A3K | 1.97
R5A L7A | -0.0917
A3W | 4.76
R6K | 7.91
L7P | 1.9
F8H | 0.435
L7A | -0.0608
K4V | 7.72
F8E | 0.125
P12V | 6.71
L7I | 4.34
R5N | 0.915
L7R | -0.602
S2P | 5.77
G1D | 6.38
P13D | 6.84
P13V | 8.77
E10V | 6.8
P13T | 6.89
R5Y | 0.276

Sample 2 — technique: RNA Bind-n-Seq; form: RNA; sample: in vitro; concentration: 365 nM; reference: no-protein control; direction: higher = stronger binding
Target: RNA binding protein fox-1 homolog 2, RRM domain, GST-SBP tag (RBFOX2, Homo sapiens, UniProt O43251-10, residues 100-194)
Setting: natural RNA segment, single round, ends assumed
Constant ends, left off below: GGGAGUUCUACAGUCCGACGAUC … UGGAAUUCUCGGGUGCCAA
Target sequence (chain): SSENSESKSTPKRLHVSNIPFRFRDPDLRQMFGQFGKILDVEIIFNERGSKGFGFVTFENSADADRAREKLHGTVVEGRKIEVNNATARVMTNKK
Sequence | RBNS enrichment (R)
UGAGGAGGCAGGCGGCUGCUAGUUGUGGCCCUUCCUGGAAGGAGAGGCCUGCAGGGCUCGACCCUGUGGGUUUCUGUCCCCAGGGAGCAGACUGUGCGGCACCCAGGCCC | 0.26
CAGCCUAGUGUAGAGGACCUCUCGAAGACAUGCCCAGGGGUUUUUUUCCAGUGAGGUUGUAGACCCUGCAAACCUAACUGUAACAUAGCCUUCACAAGCAUGAUAAACCC | 0.511
UUGUGUUGUUCCAGGGCCUGUGCUAAGCACAGGCACCAAACAUAAAAAGAGAGAAAGUCCUUGCUCCCGGGAACUCCCACUCUCUCAGGAACCACAGACCACCAAUGUUG | 0.341
AUUUUAUAACAGGGCGGCUGGUUAAUAUCUCACACAGUUUAAAAAAUCAGCCCCUAAUUUCUCCAUGUUUACACUUCAAUCUGCAGGCUUCUUAAAGUGACAGUAUCCCU | 0.306
AGGGAAAAACAACAGCAAUAACAUUCAUAUCUCUGGAGCAGCUAACUCAUACACGUAAUGUCUGCUUUUCGUACAGAACUAGCCAAUGUAAAAACAGUUCACCUGUAAAU | 0.479
CUCAGGCAUGACUACGCUGUUUGAAACAGACAGAUGUUUACUCUUCCUUGUAAUGAGUAGGUUUGGAUUUAAGAGCCGAUUAGAGGCUACUUCCUGUAAACAAGUACAGG | 0.63
UUCCUUCCUUUCUUGUCCUGUUUCCCUUCCUGCCCUUGCAGUCCUGAGGUCCUGCAGCCCCGGCCCCUCCUCCGUGACCUGGUGUGGCCAGGCUGCGGGGACGGGAGGGG | 0.675
GUCAUUAACAAGAAACAGGAUAUGCUUUAAGACAGAAUUCACUGUCUGUUGCUUCAGUAAAAGGACCUCGGGGAAUAAAACAUUUCUCUCUUAUAUGCCAGAAUGUAGGC | 0.772

Sample 3 — technique: DHFR PCA, deep sequencing; sample: yeast; added: (+)-ABA 4.8 µM; reference: wild-type fitted maximum; direction: higher = stronger binding
Target: ABI1, truncated, D143A, DHFR fusion (Arabidopsis thaliana)
Setting: methotrexate growth selection, single substitutions
Starting sequence: PYL1, truncated, DHFR fusion (Arabidopsis thaliana); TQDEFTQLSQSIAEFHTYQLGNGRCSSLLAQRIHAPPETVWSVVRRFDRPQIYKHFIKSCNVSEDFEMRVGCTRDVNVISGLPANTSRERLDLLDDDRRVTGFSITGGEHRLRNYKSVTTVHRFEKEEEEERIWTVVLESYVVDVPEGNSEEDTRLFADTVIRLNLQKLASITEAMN
Substitution | relative binding score
M176I | 60.9%
D95P | -3.35%
N22R | 75.5%
G102H | -9.67%
E125Y | 78.3%
K126D | 90.3%
A170R | 74.8%
V70Q | 37.5%
D153I | -6.05%
I172L | 65%
L156M | 76.7%
P50W | 7.4%
R132L | 72.3%
H16D | -15.1%
L169R | -10.3%
T160E | 8.7%
Q2C | 76.7%
L82V | 42.4%

Sample 4 — technique: aptamer microarray, sandwich; form: DNA with 2'F-ANA; sample: in vitro; concentration: 200 nM; added: Cy3 exosite-II aptamer, 400 nM; direction: higher = stronger binding; sequence: GGTTGGTGTGGTTGG
Target: Prothrombin, mature alpha-thrombin (F2, Homo sapiens, UniProt P00734)
Setting: whole 15-mer aptamer, many near background
Modification | mean fluorescence intensity
2'F-ANA at 1 2 4 7 9 10 11 15 | 47.7 a.u.
2'F-ANA at 2 3 5 8 11 13 14 | 52.7 a.u.
2'F-ANA at 2 4 6 10 11 | 108 a.u.
2'F-ANA at 1 3 5 6 7 8 10 12 14 15 | 56.9 a.u.
2'F-ANA at 4 6 7 10 11 13 | 66.1 a.u.
2'F-ANA at 3 4 5 8 9 10 11 12 13 14 | 87.8 a.u.
2'F-ANA at 5 8 9 10 14 15 | 45.3 a.u.
2'F-ANA at 1 3 12 15 | 539 a.u.
2'F-ANA at 2 7 8 10 13 14 | 88.7 a.u.
2'F-ANA at 1 3 5 6 8 10 11 | 55.7 a.u.
2'F-ANA at 2 3 4 7 9 11 13 14 | 233 a.u.
2'F-ANA at 2 3 4 5 7 8 11 12 14 15 | 97.5 a.u.
2'F-ANA at 2 7 10 11 14 | 92.9 a.u.
2'F-ANA at 2 3 5 6 7 10 11 14 15 | 75.3 a.u.
2'F-ANA at 2 3 4 6 12 14 15 | 298 a.u.
2'F-ANA at 1 5 9 10 12 13 14 15 | 43.1 a.u.
2'F-ANA at 1 2 3 4 7 11 14 15 | 65.7 a.u.
2'F-ANA at 1 2 3 4 5 9 11 12 14 15 | 45.9 a.u.
2'F-ANA at 5 6 8 11 12 13 | 109 a.u.
2'F-ANA at 2 3 4 5 7 10 15 | 90.7 a.u.
2'F-ANA at 2 4 5 6 9 10 11 14 | 50.3 a.u.
2'F-ANA at 1 3 7 9 15 | 291 a.u.
2'F-ANA at 2 4 5 6 7 8 11 13 15 | 50.4 a.u.
2'F-ANA at 1 2 4 5 7 | 57.6 a.u.

Some of these lines once more (sample 4):
Modification | mean fluorescence intensity
2'F-ANA at 2 7 8 10 13 14 | 88.7 a.u.
2'F-ANA at 1 3 5 6 8 10 11 | 55.7 a.u.
2'F-ANA at 2 3 4 7 9 11 13 14 | 233 a.u.
2'F-ANA at 2 3 4 5 7 8 11 12 14 15 | 97.5 a.u.
2'F-ANA at 2 7 10 11 14 | 92.9 a.u.
2'F-ANA at 2 3 5 6 7 10 11 14 15 | 75.3 a.u.
2'F-ANA at 2 3 4 6 12 14 15 | 298 a.u.
2'F-ANA at 1 5 9 10 12 13 14 15 | 43.1 a.u.
2'F-ANA at 1 2 3 4 7 11 14 15 | 65.7 a.u.
2'F-ANA at 1 2 3 4 5 9 11 12 14 15 | 45.9 a.u.
